# Assay results from different studies.
# Each line is one published result; not all experiments were run side by side. “And” joins repeats or separate records; there may be more than shown. ± gives the spread as reported.
Structure (SMILES),test,test system,conditions,scale,quantity,result
Cc1cc(C)nc(NC(=S)N2CCN(Cc3ccc(C(F)(F)F)cc3)CC2)c1,,aqueous buffer with 500 µM DTT,48 h,,remaining compound,> 95%
CC(C)(C)[C@H](NC(=O)C(F)F)C(=O)N1C[C@H]2[C@@H]([C@H]1C(=O)N[C@H](C#N)C[C@@H]1CCCNC1=O)C2(C)C,,mouse liver microsomes,60 min,,remaining compound,99.6%
CC(C)(C)[Si](C)(C)Oc1ccc(COC(=O)NNc2ccccc2)cc1,,PBS,"12 h, 37 °C",reference: initial amount,remaining fraction,0.95 and 0.97 and 0.98
C[C@](C(=O)NC1CCC(F)(F)CC1)(c1cncnc1)N(C(=O)[C@H](F)Cl)c1ccc(OC(F)(F)F)cc1,,mouse liver microsomes,"concentration not given, 1 h, pH 7.4",,remaining compound,11.8%
C=CC(=O)Nc1cc(Nc2nccc(-c3cn(C)c4ccccc34)n2)c(OC)cc1N(C)CCNC,storage stability,human plasma,"270 ng/mL, 5 h, -80 °C, HQC level",,remaining amount,99.2%
CSCC[C@@H](N)C(=O)N[C@@H](CC(C)C)C(=O)N[C@@H](CCCNC(=N)N)C(=O)N[C@@H](Cc1c[nH]c2ccccc12)C(=O)N[C@@H](CO)C(=O)N[C@@H](CCCNC(=N)N)C(=O)N[C@@H](CCCCN)C(=O)N[C@@H](CCSC)C(=O)N1CCC[C@H]1C(=O)N[C@@H](CS)C(=O)N[C@H](C(=O)N[C@@H](CO)C(=O)O)C(C)C,"12G5 competition, SUP-T1 cells",human plasma,"concentration not given, 2 h",,remaining activity,68 ± 8%
CN(Cc1cc(C2CC2)on1)C(=O)c1cccc(-c2ccc(F)cc2)c1,,human liver microsomes,"2 µM, 30 min, pH 7.5, together with: 1-aminobenzotriazole 500 µM, preincubated 30 min",,remaining compound,89.2%
CC[C@H](C)[C@@H](C(=O)N[C@@H](CC(C)C)C(=O)N[C@@H](CO)C(=O)N[C@@H](CO)C(=O)N[C@H](C(=O)N[C@@H](CCC(=O)O)C(=O)N[C@H](C(=O)NCC(=O)N[C@@H](CO)C(=O)NCC(=O)N[C@H](C(=O)N1C[C@H](O)C[C@H]1C(N)=O)[C@@H](C)O)C(C)C)[C@@H](C)O)N(C)C(=O)[C@H](C)NC(=O)CN(C)C(=O)[C@H](Cc1ccccc1)NC(=O)[C@H](CO)NC(=O)[C@H](CO)NC(=O)[C@H](CCCNC(=N)N)NC(=O)[C@H](CCC(N)=O)NC(=O)[C@H](CC(C)C)NC(=O)[C@H](Cc1ccccc1)NC(=O)[C@H](Cc1c[nH]cn1)NC(=O)[C@H](C)NC(=O)[C@H](CC(C)C)NC(=O)[C@H](CCCNC(=N)N)NC(=O)[C@H](CCC(N)=O)NC(=O)[C@@H](NC(=O)[C@H](C)NC(=O)[C@@H]1CSSC[C@H](NC(=O)[C@H](CCCNC(=N)N)NC(=O)CC[C@H](NC(=O)CCCCCCCCCCCCCCCCCCC(=O)O)C(=O)O)C(=O)N[C@@H](CC(N)=O)C(=O)N[C@@H]([C@@H](C)O)C(=O)N[C@@H](C)C(=O)N[C@@H]([C@@H](C)O)C(=O)N1)[C@@H](C)O,RP-HPLC,water,"7 days, pH 7.5, 40 °C",,remaining main peak,91 area %
Cc1ccc(C(C)C)cc1.[Cl-].[Cl-].[Fe+2].[Ru+2].c1cc[cH-]c1.c1ccc(P(=NCc2ccccn2)(c2ccccc2)[c-]2cccc2)cc1,,DMSO-d6,1 month,,remaining intact compound,> 99%
CC[C@H](C)[C@@H](C(=O)N[C@@H](CC(C)C)C(=O)N[C@@H](CO)C(=O)N[C@@H](CO)C(=O)N[C@H](C(=O)N[C@@H](CCC(=O)O)C(=O)N[C@H](C(=O)NCC(=O)N[C@@H](CO)C(=O)N[C@@H](CC(N)=O)C(=O)N[C@H](C(=O)N1CCC[C@H]1C(N)=O)[C@@H](C)O)C(C)C)[C@@H](C)O)N(C)C(=O)[C@H](C)NC(=O)CN(C)C(=O)[C@H](Cc1ccccc1)NC(=O)[C@H](CO)NC(=O)[C@H](CO)NC(=O)[C@H](CCCNC(=N)N)NC(=O)[C@H](Cc1c[nH]cn1)NC(=O)[C@H](CC(C)C)NC(=O)[C@H](Cc1ccccc1)NC(=O)[C@H](Cc1c[nH]cn1)NC(=O)[C@H](C)NC(=O)[C@H](CC(C)C)NC(=O)[C@H](CCCNC(=N)N)NC(=O)[C@H](CCC(=O)O)NC(=O)[C@@H](NC(=O)[C@H](C)NC(=O)[C@@H]1CSSC[C@H](NC(=O)[C@H](CCCNC(=N)N)NC(=O)CC[C@H](NC(=O)CCCCCCCCCCCCCCCCCCC(=O)O)C(=O)O)C(=O)NCC(=O)N[C@@H]([C@@H](C)O)C(=O)N[C@@H](C)C(=O)N[C@@H]([C@@H](C)O)C(=O)N1)[C@@H](C)O,RP-HPLC,water,"7 days, pH 6.0, 40 °C",,remaining main peak,85 area %
N=C(N)NCCC[C@@H]1NC(=O)[C@H](CCCNC(=N)N)NC(=O)[C@@H](CCCNC(=N)N)NC(=O)[C@@H](CCCNC(=N)N)NC(=O)[C@@H](C(c2ccccc2)c2ccccc2)NC(=O)[C@H](Cc2c[nH]c3ccccc23)NC(=O)[C@@H](C(c2ccccc2)c2ccccc2)NC1=O,LC-MS,human plasma,30 min,,remaining peptide,~90.4%
O=C(NC1CCC(F)(F)CC1)C(c1cncnc1)N(C(=O)C(F)Cl)c1ccc(OC(F)(F)F)cc1 (centres unmarked),,human liver microsomes,"concentration not given, 0.5 h, pH 7.4",,remaining compound,98.3%
CC[C@H](C)[C@@H](C(=O)N[C@@H](CC(C)C)C(=O)N[C@@H](CO)C(=O)N[C@@H](CO)C(=O)N[C@H](C(=O)N[C@@H](CCC(=O)O)C(=O)N[C@H](C(=O)NCC(=O)N[C@@H](CO)C(=O)N[C@@H](CC(N)=O)C(=O)N[C@H](C(=O)N1C[C@H](O)C[C@H]1C(N)=O)[C@@H](C)O)C(C)C)[C@@H](C)O)N(C)C(=O)[C@H](C)NC(=O)CN(C)C(=O)[C@H](Cc1ccccc1)NC(=O)[C@H](CO)NC(=O)[C@H](CO)NC(=O)[C@H](CCCNC(=N)N)NC(=O)[C@H](CCC(N)=O)NC(=O)[C@H](CC(C)C)NC(=O)[C@H](Cc1ccccc1)NC(=O)[C@H](Cc1c[nH]cn1)NC(=O)[C@H](C)NC(=O)[C@H](CC(C)C)NC(=O)[C@H](CCCNC(=N)N)NC(=O)[C@H](CCC(=O)O)NC(=O)[C@@H](NC(=O)[C@H](C)NC(=O)[C@@H]1CSSC[C@H](NC(=O)[C@H](CCCNC(=N)N)NC(=O)CC[C@H](NC(=O)CCCCCCCCCCCCCCCCCCC(=O)O)C(=O)O)C(=O)N[C@@H](CCC(N)=O)C(=O)N[C@@H]([C@@H](C)O)C(=O)N[C@@H](C)C(=O)N[C@@H]([C@@H](C)O)C(=O)N1)[C@@H](C)O,RP-HPLC,water,"7 days, pH 7.5, 40 °C",,remaining main peak,96 area %
Cc1ccc(C(C)C)cc1.O=C(N=P(c1ccccc1)(c1ccccc1)c1ccccc1)c1ccccn1.[Cl-].[Cl-].[Ru+2],,DMSO-d6,3 weeks,,remaining intact compound,> 99%
